# Assay results from different studies.
# Numbered parts are unrelated; each lists some results of a single study.
# Chain of UniProt O94921 (whole entry, looked up): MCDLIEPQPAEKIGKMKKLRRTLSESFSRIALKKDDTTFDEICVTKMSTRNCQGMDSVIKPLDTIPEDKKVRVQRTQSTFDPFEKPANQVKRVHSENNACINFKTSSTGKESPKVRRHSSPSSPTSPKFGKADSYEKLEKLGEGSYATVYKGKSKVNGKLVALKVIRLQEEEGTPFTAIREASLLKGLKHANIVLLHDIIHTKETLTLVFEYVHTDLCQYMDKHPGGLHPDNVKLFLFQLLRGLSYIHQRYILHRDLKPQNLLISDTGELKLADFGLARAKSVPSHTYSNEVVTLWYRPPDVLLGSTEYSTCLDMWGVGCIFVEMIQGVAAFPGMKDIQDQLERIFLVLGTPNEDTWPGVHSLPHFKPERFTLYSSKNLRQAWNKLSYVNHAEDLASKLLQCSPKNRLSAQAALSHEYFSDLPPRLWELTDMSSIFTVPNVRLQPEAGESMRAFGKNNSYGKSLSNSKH

# Sample 1 — technique: aptamer microarray, sandwich; molecule type: DNA with 2'F-ANA; medium: in vitro; concentration: 200 nM; added: Cy3 exosite-II aptamer, 400 nM; direction: higher = stronger binding; strand: GGTTGGTGTGGTTGG
# Target: Prothrombin, mature alpha-thrombin (F2, Homo sapiens, UniProt P00734)
# Setting: whole 15-mer aptamer, many near background
Modification,mean fluorescence intensity
2'F-ANA at 2 3 4 6 7 11 14 15,233 a.u.
2'F-ANA at 5 8 10 11 13 14 15,47 a.u.
2'F-ANA at 1 2 3 4 5 6 7 10 12 13 14 15,77.9 a.u.
2'F-ANA at 1 4 5 7 10 12 13 14,45.1 a.u.
2'F-ANA at 2 3 7 10 14 15,296 a.u.
2'F-ANA at 1 3 4 6 8 9 10 14,53.1 a.u.
2'F-ANA at 1 2 8 13 15,155 a.u.
2'F-ANA at 1 2 4 6,112 a.u.

# Sample 2 — technique: RNA Bind-n-Seq; molecule type: RNA; medium: in vitro; concentration: 20 nM; setting: 6-mer, flanks averaged, single round; added: 150 mM LiCl; reference: input library; direction: higher = stronger binding
# Target: TAR DNA-binding protein 43, full length, His tag (TARDBP, Homo sapiens, UniProt Q13148, residues 1-414)
Strand,6-mer enrichment (R)
GGCACU,0.932
CCAACC,0.878
CUCGAC,0.799
AGGAAA,0.844
GUAGCU,0.972
UGAAUA,0.923
GCGCAU,1
CCUCUC,0.971

# Further values, each from its own experiment
Compound,tested on,effect on,technique,medium,concentration,measurement,result
CN(C)C(=O)Cn1cc(-c2nc([C@@](C)(c3ccc(-c4cnc(N)nc4)cc3)C3CC3)no2)cn1,"Cyclin-dependent kinase 14 (CDK14, Homo sapiens, UniProt O94921)",cell-free assay,competition with immobilised ligand,,1 µM,remaining binding,99%
CCC[C@H]1NC(=O)CSC[C@@H](C(=O)OCC)N(C)C(=O)[C@H](CC(C)C)NC(=O)[C@@H](C)N(C)C(=O)[C@@H](CC(C)C)NC(=O)[C@H](C)N(C)C(=O)[C@H]2CCCN2C(=O)[C@H](CC(C)C)NC(=O)CN(CCC)C1=O,,,,hydrocarbon/water,,logD,0.86
